Published values collected from several papers.
Each numbered part is a random draw from the data of one study; scales do not carry over between parts. Changes are numbered by the printed parent chain.
Chain of UniProt Q92918 (whole entry, looked up): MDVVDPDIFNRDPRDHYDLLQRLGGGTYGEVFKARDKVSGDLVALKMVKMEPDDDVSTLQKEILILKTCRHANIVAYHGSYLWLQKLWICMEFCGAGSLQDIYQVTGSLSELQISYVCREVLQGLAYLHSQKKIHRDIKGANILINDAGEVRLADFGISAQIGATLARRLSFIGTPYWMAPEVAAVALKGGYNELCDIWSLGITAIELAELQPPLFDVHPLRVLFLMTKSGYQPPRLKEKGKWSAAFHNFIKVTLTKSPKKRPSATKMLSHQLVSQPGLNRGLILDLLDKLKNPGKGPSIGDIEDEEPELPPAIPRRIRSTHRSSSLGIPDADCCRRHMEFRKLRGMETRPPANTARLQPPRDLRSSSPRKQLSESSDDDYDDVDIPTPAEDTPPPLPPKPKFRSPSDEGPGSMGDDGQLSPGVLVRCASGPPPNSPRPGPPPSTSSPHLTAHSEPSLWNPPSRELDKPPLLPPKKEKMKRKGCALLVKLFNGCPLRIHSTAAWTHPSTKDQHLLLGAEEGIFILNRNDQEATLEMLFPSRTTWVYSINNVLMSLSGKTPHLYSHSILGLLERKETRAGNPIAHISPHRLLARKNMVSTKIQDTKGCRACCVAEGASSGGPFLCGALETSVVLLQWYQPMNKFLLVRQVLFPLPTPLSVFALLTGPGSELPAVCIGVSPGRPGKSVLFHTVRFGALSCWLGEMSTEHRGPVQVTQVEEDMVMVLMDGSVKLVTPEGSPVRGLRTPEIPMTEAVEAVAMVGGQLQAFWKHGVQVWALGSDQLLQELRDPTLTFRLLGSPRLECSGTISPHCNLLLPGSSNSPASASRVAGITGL
Chain of UniProt P00519 (whole entry, unmodified, looked up): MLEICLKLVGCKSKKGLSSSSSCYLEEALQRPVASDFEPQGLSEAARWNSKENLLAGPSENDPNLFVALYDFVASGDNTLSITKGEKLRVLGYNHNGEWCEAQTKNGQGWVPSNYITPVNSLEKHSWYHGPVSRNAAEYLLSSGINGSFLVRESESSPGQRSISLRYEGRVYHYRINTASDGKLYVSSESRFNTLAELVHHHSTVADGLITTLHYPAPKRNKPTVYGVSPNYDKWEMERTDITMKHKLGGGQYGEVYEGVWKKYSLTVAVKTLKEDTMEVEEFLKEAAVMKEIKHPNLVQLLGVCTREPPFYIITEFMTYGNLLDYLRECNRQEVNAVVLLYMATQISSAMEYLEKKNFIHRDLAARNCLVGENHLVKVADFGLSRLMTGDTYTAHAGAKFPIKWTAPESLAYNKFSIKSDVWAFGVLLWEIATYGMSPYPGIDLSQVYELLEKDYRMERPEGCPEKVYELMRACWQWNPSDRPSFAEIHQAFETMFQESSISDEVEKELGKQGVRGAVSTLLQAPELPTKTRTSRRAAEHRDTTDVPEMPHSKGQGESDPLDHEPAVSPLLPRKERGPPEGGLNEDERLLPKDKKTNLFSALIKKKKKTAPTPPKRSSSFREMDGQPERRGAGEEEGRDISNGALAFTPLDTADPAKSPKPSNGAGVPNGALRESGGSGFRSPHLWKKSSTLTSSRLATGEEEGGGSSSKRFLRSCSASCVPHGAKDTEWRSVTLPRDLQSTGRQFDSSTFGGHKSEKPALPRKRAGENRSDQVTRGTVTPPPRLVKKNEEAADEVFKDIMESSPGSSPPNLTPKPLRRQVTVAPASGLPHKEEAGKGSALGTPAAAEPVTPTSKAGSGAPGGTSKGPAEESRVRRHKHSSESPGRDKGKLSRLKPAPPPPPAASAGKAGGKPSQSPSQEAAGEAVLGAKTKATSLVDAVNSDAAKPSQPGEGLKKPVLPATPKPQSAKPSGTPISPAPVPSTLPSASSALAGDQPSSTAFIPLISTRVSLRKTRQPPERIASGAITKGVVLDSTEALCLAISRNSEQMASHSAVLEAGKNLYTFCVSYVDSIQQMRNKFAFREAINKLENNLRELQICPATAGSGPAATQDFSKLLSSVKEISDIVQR

Sample 1
Structure (SMILES): CN([C@@H]1CCc2c(CC(=O)O)c3cc(S(C)(=O)=O)ccc3n2C1)S(=O)(=O)c1ccc(F)cc1
Tested at: 1 µM
Endpoint: remaining binding
FLT3 (Homo sapiens, UniProt P36888, R834Q); cell-free assay, competition with immobilised ligand: 100%
Tyrosine-protein kinase ABL1, phosphorylated (ABL1, Homo sapiens, UniProt P00519, F317I); binding: 76%
MAP4K1 (Homo sapiens, UniProt Q92918); cell-free assay, competition with immobilised ligand: 100%

Sample 2
Target: CEBPA, bZIP domain (human)
Method: DHFR protein complementation
Matrix: yeast
Setting: single substitutions, most at no-binding floor
Baseline: wild-type JUN-FOS pair
Direction: higher = stronger binding
Endpoint: binding fitness
Starting sequence: JUN, bZIP domain (human); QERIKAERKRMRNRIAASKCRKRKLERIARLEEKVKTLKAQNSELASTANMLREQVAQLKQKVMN; partner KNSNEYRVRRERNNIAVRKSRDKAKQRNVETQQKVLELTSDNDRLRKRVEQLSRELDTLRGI
E33C: -1.48 natural log
L38A: -1.51 natural log
L45T: -1.42 natural log
E32P: -1.53 natural log
L45S: -1.42 natural log
R30G: -1.36 natural log
L31C: -1.46 natural log
E54P: -1.51 natural log

Sample 3
Target: MAP kinase-interacting serine/threonine-protein kinase 2 (MKNK2, Homo sapiens, UniProt Q9HBH9)
Chain of UniProt Q9HBH9 (whole entry, looked up): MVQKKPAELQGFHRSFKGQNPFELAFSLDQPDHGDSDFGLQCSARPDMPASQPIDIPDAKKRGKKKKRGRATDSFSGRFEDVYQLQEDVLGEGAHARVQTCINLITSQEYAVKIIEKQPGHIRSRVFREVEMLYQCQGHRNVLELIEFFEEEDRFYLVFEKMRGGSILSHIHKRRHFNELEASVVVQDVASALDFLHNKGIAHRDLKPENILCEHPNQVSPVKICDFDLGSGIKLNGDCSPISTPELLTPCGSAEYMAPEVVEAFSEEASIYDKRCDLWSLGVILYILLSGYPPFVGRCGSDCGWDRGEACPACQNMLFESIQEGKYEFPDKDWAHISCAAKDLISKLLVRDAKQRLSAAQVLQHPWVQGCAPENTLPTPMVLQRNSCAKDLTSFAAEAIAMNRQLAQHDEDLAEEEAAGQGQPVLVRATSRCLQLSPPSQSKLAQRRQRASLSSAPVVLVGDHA
Effect on: enzyme activity
Action: inhibitor
Tested at: 0.5 µM
Baseline: control
Endpoint: remaining activity
Cn1c2ccccc2c2c3c(c4c5ccccc5n(CCC#N)c4c21)CNC3=O: 18%
O=C1NC(=O)C(c2cn(CCCn3ccnc3)c3ccccc23)=C1Nc1ccccc1: 87.2%
Cc1ccc(NC(=O)c2ccc(CN3CCN(C)CC3)cc2)cc1Nc1nc(-c2cccnc2)cs1: 103%
CNC(=O)c1cc(Oc2ccc(NC(=O)Nc3ccc(Cl)c(C(F)(F)F)c3)cc2)ccn1: 70.3%
OCC(O)CCON=C1C(c2c(O)[nH]c3ccccc23)=Nc2ccccc21 (stereo not drawn): 72.4%
COc1cc2nccc(Oc3ccc(NC(=S)NC(=O)c4ccccc4C)cc3)c2cc1OC: 94.3%
CN(C)c1ccc(C=C2C(=O)Nc3ccccc32)cc1: 90.5%
Cc1ccc(Nc2nccc(N(C)c3ccc4c(C)n(C)nc4c3)n2)cc1S(N)(=O)=O: 107%
COc1cc2ncnc(Nc3ccc(F)c(Cl)c3)c2cc1OCCCN1CCOCC1: 54.1%
CCOC(=O)c1c(C)[nH]c(/C=C2\C(=O)Nc3ccccc32)c1C: 87.4%
Oc1ccc(-c2nc(-c3ccncc3)c(-c3ccc(F)cc3)[nH]2)cc1: 89.4%
COc1ccc(OC)c2c(=S)c3ccccc3[nH]c12: 86.2%
O=C1NC(=O)C(c2cn(CCCO)c3ncccc23)=C1c1cnccn1: 69.1%
Cc1cccc(-c2[nH]c(C(C)(C)C)nc2-c2ccc3c(c2)OCO3)n1: 87.8%

Sample 4
Target: Centromere-binding protein 1, full length, His-tagged (CBF1, Saccharomyces cerevisiae, UniProt P17106, residues 1-351)
Chain of UniProt P17106 (whole entry, looked up): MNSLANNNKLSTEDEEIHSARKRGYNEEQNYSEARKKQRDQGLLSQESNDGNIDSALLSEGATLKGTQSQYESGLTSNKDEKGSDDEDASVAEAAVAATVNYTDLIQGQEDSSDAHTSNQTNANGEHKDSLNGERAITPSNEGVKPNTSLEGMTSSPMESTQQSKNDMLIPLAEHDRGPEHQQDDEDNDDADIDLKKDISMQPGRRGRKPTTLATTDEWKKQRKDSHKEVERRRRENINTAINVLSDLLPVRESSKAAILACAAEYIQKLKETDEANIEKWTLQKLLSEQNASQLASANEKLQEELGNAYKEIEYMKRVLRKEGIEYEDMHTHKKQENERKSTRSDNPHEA
Method: competition protein-binding microarray
Form: double-stranded DNA, one strand shown
Matrix: in vitro
Tested at: 2 µM
Setting: whole 60-bp probe, lowest competitor level
With: Pho4 competitor, 0.05 µM
Direction: higher = stronger binding
Endpoint: fluorescence intensity
Shared flanks, not repeated: … GTCTTGATTCGCTTGACGCTGCTG
CAAACGGTTTGGCCGCTCGTGTCGGCATTGGTCAAA: 57.3 a.u.
CGGGGTTAAGTTTGATACGTGGGTGGCTTGCAGCAG: 63.3 a.u.
AAATTACTAAGTTGAGTAGTGGGTGACGCCGTATGA: 75.6 a.u.
AGGCGCTCGCTCTCTTCCGTGGGTACCTGCTATATA: 55.6 a.u.
GCCGAACTCTTTTATCATGTGATATGAATATGTTGG: 1880 a.u.
AAAGCGGTAATTTTTCACGTGGCTTCACATATCTAT: 983 a.u.
CTTTCCCGATCTTCACACGTGTTTTTAGCACATTTG: 1050 a.u.
AAATTACTAAGTTGTTCCGTGGGTGACGCCGTATGA: 79.4 a.u.

A few entries again (sample 3):
Cc1ccc(Nc2nccc(N(C)c3ccc4c(C)n(C)nc4c3)n2)cc1S(N)(=O)=O: 107%
COc1cc2ncnc(Nc3ccc(F)c(Cl)c3)c2cc1OCCCN1CCOCC1: 54.1%
CCOC(=O)c1c(C)[nH]c(/C=C2\C(=O)Nc3ccccc32)c1C: 87.4%
Oc1ccc(-c2nc(-c3ccncc3)c(-c3ccc(F)cc3)[nH]2)cc1: 89.4%
COc1ccc(OC)c2c(=S)c3ccccc3[nH]c12: 86.2%
